Measured values gathered from unrelated publications.
Lines come from different studies, so protocols differ. ± marks the error that the study gave.
UCHL1: Ubiquitin carboxyl-terminal hydrolase isozyme L1 (UCHL1, Homo sapiens, UniProt P09936)
UniProt P09936, sequence (whole entry, looked up): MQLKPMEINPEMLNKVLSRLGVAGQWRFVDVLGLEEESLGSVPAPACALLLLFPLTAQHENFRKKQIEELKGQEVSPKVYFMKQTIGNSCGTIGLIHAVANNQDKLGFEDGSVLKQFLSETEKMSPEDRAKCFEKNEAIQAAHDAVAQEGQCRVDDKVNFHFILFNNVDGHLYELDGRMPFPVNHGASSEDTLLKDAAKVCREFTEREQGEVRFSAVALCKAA

For CC(C)C[C@H](NC(=O)[C@H](CC(C)C)NC(=O)CNC(=O)[C@H](C)NC(=O)[C@H](C)NC(=O)[C@H](CCCNC(=N)N)NC(=O)CNC(=O)CCCCNC(=O)CCCCNC(=O)CCCCNC(=O)[C@H](CCCCN)NC(=O)[C@H](Cc1ccc(O)cc1)NC(=O)CCc1c[nH]c2ccccc12)C(N)=O, the remaining compound was 86 ± 9% (Sprague-Dawley rat, male, plasma; 1 µM, 0.25 h).
COc1cc2c3cc1Oc1c(OC)c(OC)cc4c1[C@@H](Cc1ccc(O)c(c1)Oc1ccc(cc1)C[C@@H]3N(C)CC2)N(C)CC4 gave a remaining compound of 98% (mouse plasma, K3EDTA; 2 h, on ice).
NC/C(=C\F)COc1cccc(Cn2c(=S)[nH]c(=O)c3[nH]cnc32)c1 has a remaining compound of 100% (human plasma; 1 µM, 1 h).
For N#CC(=Cc1cccc2c1OCO2)C(=O)Nc1cccc2ccccc12, the labelling was 33.9% (UCHL1; covalent, intact protein LC-MS; 12.5 µM).
With CC(C)[N+](C)(CCOC(=O)C1c2ccccc2Oc2ccccc21)C(C)C the remaining compound was 80.2% (human, both sexes, whole blood; 5 µM, 15 min).
With Cc1cc(NC(=O)c2cccc(NC(=O)/C=C/CN(C)C)c2)ccc1Nc1nccc(-c2cccnc2)n1 the remaining compound was 92% (rat Wistar male, plasma; 1 µM, 60 min).
CCCCNC(=O)C(C#N)=Cc1ccc(Cl)cc1 has a labelling of 18.4% (UCHL1; covalent, intact protein LC-MS; 12.5 µM).
With C/C(=N\c1ccc(O)cc1)c1cc2ccccc2n1C the remaining compound was 96.1 ± 8.2% (rat plasma; 1.5 ng/mL, time not given, 3 freeze-thaw cycles; reference: nominal).
CC(C)C[C@H](NC(=O)[C@H](CCc1ccccc1)NC(=O)CN1CCOCC1)C(=O)N[C@@H](Cc1ccccc1)C(=O)N[C@@H](CC(C)C)C(=O)[C@@]1(C)CO1 gave a remaining compound of less than 10% (Sprague Dawley rat, male, rat liver homogenate; 1 µM, 10 min, 37 °C).
The remaining compound of Cc1cccc(CNC(=O)c2cn(CCNC(=O)c3ccccc3Sc3c([N+](=O)[O-])ncn3C)c3cc4c(cc3c2=O)OCO4)n1 is reported as 93.3% (human, whole blood; 1 µM, 0.25 h).
For NCc1cc2c(cc1F)C(=O)N(C1CCC(=O)NC1=O)C2 (stereo not drawn), the remaining compound was greater than 95% (human, mixed sex, whole blood; 3 h).
COc1ccc(/C=C/CN2CCCC(CCC(=O)NCc3ccc(F)c(F)c3)C2)cc1 (stereo not drawn) gave an inhibition of 3.4% (Trypanosoma cruzi; reporter translation, Renilla luciferase mRNA translation; cell-free extract; 40 µM; reference: DMSO).

Some of these lines once more:
With C/C(=N\c1ccc(O)cc1)c1cc2ccccc2n1C the remaining compound was 96.1 ± 8.2% (rat plasma; 1.5 ng/mL, time not given, 3 freeze-thaw cycles; reference: nominal).
The remaining compound of Cc1cccc(CNC(=O)c2cn(CCNC(=O)c3ccccc3Sc3c([N+](=O)[O-])ncn3C)c3cc4c(cc3c2=O)OCO4)n1 is reported as 93.3% (human, whole blood; 1 µM, 0.25 h).
